{"data": "Published values gathered from unrelated publications", "note": "Compare with care: the assays were run in different laboratories. Numbers after ± are the reported error."}
{"Structure (SMILES)": "CCCC[C@H](NC(=O)CNC(=O)CNC(=O)CN1CCN(CC(=O)O)CCN(CC(=O)O)CC1)C(=O)N[C@H]1CC(=O)NCCCC[C@@H](C(N)=O)NC(=O)[C@H](Cc2c[nH]c3ccccc23)NC(=O)[C@H](CCCNC(=N)N)NC(=O)[C@@H](Cc2ccccc2)NC(=O)[C@H](Cc2c[nH]cn2)NC1=O [technetium-99m labelled]", "system": "C57 mouse, stomach", "conditions": "iv, 0.037 MBq, 24 h", "tissue uptake": "0.06 ± 0.07 %ID/g"}
{"Structure (SMILES)": "CCCC[C@H](NC(=O)CNC(=O)CNC(=O)CN1CCN(CC(=O)O)CCN(CC(=O)O)CCN(CC(=O)O)CC1)C(=O)N[C@H]1CC(=O)NCCCC[C@@H](C(N)=O)NC(=O)[C@H](Cc2c[nH]c3ccccc23)NC(=O)[C@H](CCCNC(=N)N)NC(=O)[C@@H](Cc2ccccc2)NC(=O)[C@H](Cc2c[nH]cn2)NC1=O [lutetium-177 labelled]", "system": "C57 mouse, female, muscle", "conditions": "intravenous, 0.037 MBq, 24 h", "tissue uptake": "0.14 ± 0.05 %ID/g"}
{"Structure (SMILES)": "CCCC[C@H](NC(=O)COCCOCCNC(=O)CN1CCN(CC(=O)O)CCN(CC(=O)O)CC1)C(=O)N[C@H]1CC(=O)NCCCC[C@@H](C(N)=O)NC(=O)[C@H](Cc2c[nH]c3ccccc23)NC(=O)[C@H](CCCNC(=N)N)NC(=O)[C@@H](Cc2ccccc2)NC(=O)[C@H](Cc2c[nH]cn2)NC1=O [copper-64 labelled]", "system": "C57 mice, kidney", "conditions": "intravenous, 0.37 MBq, 2 h", "tissue uptake": "3.66 ± 0.52 %ID/g"}
{"Structure (SMILES)": "N=C(N)NCCC[C@@H]1NC(=O)[C@H](CCCCNC(=O)CC[C@H](NC(=O)CC[C@H](NC(=O)CN2CCN(CC(=O)O)CCN(CC(=O)O)CCN(CC(=O)O)CC2)C(=O)N[C@@H](CCC(=O)NCCCC[C@@H]2NC(=O)[C@@H](Cc3ccccc3)NC(=O)[C@H](CC(=O)O)NC(=O)CNC(=O)[C@H](CCCNC(=N)N)NC2=O)C(=O)NCCCC[C@@H]2NC(=O)[C@@H](Cc3ccccc3)NC(=O)[C@H](CC(=O)O)NC(=O)CNC(=O)[C@H](CCCNC(=N)N)NC2=O)C(=O)NCCCC[C@@H]2NC(=O)[C@@H](Cc3ccccc3)NC(=O)[C@H](CC(=O)O)NC(=O)CNC(=O)[C@H](CCCNC(=N)N)NC2=O)NC(=O)[C@@H](Cc2ccccc2)NC(=O)[C@H](CC(=O)O)NC(=O)CNC1=O [indium-111 labelled]", "system": "female athymic nu/nu mice, muscle", "conditions": "intravenous, 0.5 h", "tissue uptake": "1.79 ± 0.38 %ID/g"}
{"Structure (SMILES)": "CC(C)C[C@H](NC(=O)[C@H](Cc1ccc(O)cc1)NC(=O)[C@@H](CCCNC(=N)N)NC(=O)[C@@H](CO)NC(=O)[C@H](Cc1ccccc1)NC(=O)[C@H](CC1CCCCC1)NC(=O)[C@H](CC(=O)O)NC(=O)CN1CCCN2CCN(CCCN(CC(=O)O)CC2)CC1)C(=O)N[C@@H](Cc1c[nH]c2ccccc12)C(=O)N[C@@H](CO)C(=O)O [copper-64 labelled]", "system": "female NMRI nude mice, muscle", "conditions": "1 h p.i.", "tissue uptake": "0.3 ± 0.1 %ID/g"}
{"Structure (SMILES)": "N=C(N)NCCC[C@@H]1NC(=O)[C@H](CCCCNC(=O)CNC(=O)CNC(=O)CNC(=O)CC[C@H](NC(=O)CNC(=O)CNC(=O)CNC(=O)CC[C@H](NC(=O)CN2CCN(CC(=O)O)CCN(CC(=O)O)CCN(CC(=O)O)CC2)C(=O)NCC(=O)NCC(=O)NCC(=O)N[C@@H](CCC(=O)NCC(=O)NCC(=O)NCC(=O)NCCCC[C@@H]2NC(=O)[C@@H](Cc3ccccc3)NC(=O)[C@H](CC(=O)O)NC(=O)CNC(=O)[C@H](CCCNC(=N)N)NC2=O)C(=O)NCC(=O)NCC(=O)NCC(=O)NCCCC[C@@H]2NC(=O)[C@@H](Cc3ccccc3)NC(=O)[C@H](CC(=O)O)NC(=O)CNC(=O)[C@H](CCCNC(=N)N)NC2=O)C(=O)NCC(=O)NCC(=O)NCC(=O)NCCCC[C@@H]2NC(=O)[C@@H](Cc3ccccc3)NC(=O)[C@H](CC(=O)O)NC(=O)CNC(=O)[C@H](CCCNC(=N)N)NC2=O)NC(=O)[C@@H](Cc2ccccc2)NC(=O)[C@H](CC(=O)O)NC(=O)CNC1=O [indium-111 labelled]", "system": "female athymic nu/nu mice, bone", "conditions": "intravenous, 72 h", "tissue uptake": "0.9 ± 0.41 %ID/g"}
{"Structure (SMILES)": "CC(C)C[C@H](NC(=O)[C@@H](CCCCNC(=O)CCCCCNC(=O)CN1CCN(CC(=O)O)CCN(CC(=O)O)CCN(CC(=O)O)CC1)NC(=O)[C@H](Cc1ccc(O)cc1)NC(=O)[C@H](CO)NC(=O)[C@H](Cc1c[nH]c2ccccc12)NC(=O)[C@H](Cc1cnc[nH]1)NC(=O)[C@@H]1CCC(=O)N1)C(=O)N[C@@H](CCCNC(=N)N)C(=O)N1CCC[C@H]1C(=O)NCC(N)=O [indium-111 labelled]", "system": "female athymic nude mouse, lung", "conditions": "intravenous, 0.037 MBq, 2 h", "tissue uptake": "0.28 ± 0.12 %ID/g"}
{"Structure (SMILES)": "CCCC[C@H](NC(=O)CCCCCCCNC(=O)CN1CCN(CC(=O)O)CCN(CC(=O)O)CC1)C(=O)N[C@H]1CC(=O)NCCCC[C@@H](C(N)=O)NC(=O)[C@H](Cc2c[nH]c3ccccc23)NC(=O)[C@H](CCCNC(=N)N)NC(=O)[C@@H](Cc2ccccc2)NC(=O)[C@H](Cc2c[nH]cn2)NC1=O [copper-64 labelled]", "system": "C57 mice, lung", "conditions": "intravenous, 0.37 MBq, 24 h", "tissue uptake": "0.38 ± 0.06 %ID/g"}
{"Structure (SMILES)": "N=C(N)NCCC[C@@H]1NC(=O)[C@H](CCCCNC(=O)CNC(=O)CNC(=O)CNC(=O)CC[C@H](NC(=O)CNC(=O)CNC(=O)CNC(=O)CN2CCN(CC(=O)O)CCN(CC(=O)O)CCN(CC(=O)O)CC2)C(=O)NCC(=O)NCC(=O)NCC(=O)NCCCC[C@@H]2NC(=O)[C@@H](Cc3ccccc3)NC(=O)[C@H](CC(=O)O)NC(=O)CNC(=O)[C@H](CCCNC(=N)N)NC2=O)NC(=O)[C@@H](Cc2ccccc2)NC(=O)[C@H](CC(=O)O)NC(=O)CNC1=O [indium-111 labelled]", "system": "female athymic nu/nu mice, intestine", "conditions": "intravenous, 1 h", "tissue uptake": "4.81 ± 1.01 %ID/g"}
{"note": "Excerpt of the above:"}
{"Structure (SMILES)": "N=C(N)NCCC[C@@H]1NC(=O)[C@H](CCCCNC(=O)CNC(=O)CNC(=O)CNC(=O)CC[C@H](NC(=O)CNC(=O)CNC(=O)CNC(=O)CC[C@H](NC(=O)CN2CCN(CC(=O)O)CCN(CC(=O)O)CCN(CC(=O)O)CC2)C(=O)NCC(=O)NCC(=O)NCC(=O)N[C@@H](CCC(=O)NCC(=O)NCC(=O)NCC(=O)NCCCC[C@@H]2NC(=O)[C@@H](Cc3ccccc3)NC(=O)[C@H](CC(=O)O)NC(=O)CNC(=O)[C@H](CCCNC(=N)N)NC2=O)C(=O)NCC(=O)NCC(=O)NCC(=O)NCCCC[C@@H]2NC(=O)[C@@H](Cc3ccccc3)NC(=O)[C@H](CC(=O)O)NC(=O)CNC(=O)[C@H](CCCNC(=N)N)NC2=O)C(=O)NCC(=O)NCC(=O)NCC(=O)NCCCC[C@@H]2NC(=O)[C@@H](Cc3ccccc3)NC(=O)[C@H](CC(=O)O)NC(=O)CNC(=O)[C@H](CCCNC(=N)N)NC2=O)NC(=O)[C@@H](Cc2ccccc2)NC(=O)[C@H](CC(=O)O)NC(=O)CNC1=O [indium-111 labelled]", "system": "female athymic nu/nu mice, bone", "conditions": "intravenous, 72 h", "tissue uptake": "0.9 ± 0.41 %ID/g"}
